Measured values of several laboratories.
Parts stem from different laboratories: compare values within a part only. Substitutions count along the parent as printed.

Block 1 — target: tungstate, free oxyanion; method: microfluidic competitive inhibition; medium: in vitro, cell-free expressed; tested at: not given; direction: lower = stronger binding; measurement: oxyanion analog dissociation constant
Notes: derived from inhibition constants, unchanged parent 2230 nM
Starting sequence: PafA, mature enzyme, eGFP fusion (Elizabethkingia meningoseptica, UniProt Q9KJX5); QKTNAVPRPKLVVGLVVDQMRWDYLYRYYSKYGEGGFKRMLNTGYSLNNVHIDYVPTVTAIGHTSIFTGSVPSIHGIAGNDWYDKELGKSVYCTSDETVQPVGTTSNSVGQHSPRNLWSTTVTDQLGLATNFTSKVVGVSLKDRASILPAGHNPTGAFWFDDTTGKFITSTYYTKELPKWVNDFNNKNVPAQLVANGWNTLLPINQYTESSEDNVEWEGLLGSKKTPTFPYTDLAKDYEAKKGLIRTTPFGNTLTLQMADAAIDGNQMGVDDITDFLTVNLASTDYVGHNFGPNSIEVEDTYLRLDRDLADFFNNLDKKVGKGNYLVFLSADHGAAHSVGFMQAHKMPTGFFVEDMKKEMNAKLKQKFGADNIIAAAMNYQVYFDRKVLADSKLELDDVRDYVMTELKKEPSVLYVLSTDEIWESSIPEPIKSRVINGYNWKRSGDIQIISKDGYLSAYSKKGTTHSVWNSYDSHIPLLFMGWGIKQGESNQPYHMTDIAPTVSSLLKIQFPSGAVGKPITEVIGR
Y45G: 2440 nM
F368G: 2150 nM
L234G: 1770 nM
S392G: 2080 nM
F312G: 1490 nM
G445V: 339 nM
Y231V: 2030 nM
H345G: 1970 nM
N107G: 2360 nM
N186V: 2280 nM
T104V: 1610 nM
D161V: 1330 nM
W198V: 1170 nM
L254G: 1550 nM
D124G: 1200 nM
L126G: 968 nM
Y83V: 1800 nM
D271V: 1630 nM

Block 2 — target: CCND3, cyclin fold, Cln2 fusion (human); method: yeast growth competition, sequencing; medium: yeast; notes: weak parent motif; reference: not given; direction: higher = stronger binding; measurement: normalised enrichment score; starting sequence: viral docking peptide; TSVRRALFTGGSD
V3A: 0.0758
R4L: -0.0843
S12H: -0.119
L7D: -0.0497
A6G: 0.309
S2E: 0.158
L7W: 0.372
T9L: 0.0761
G11Y: -0.35
A6M: -0.545
V3Y: 0.24
F8S: 0.257
S12N: 0.0417
R4M: 0.0163
R5V: 0.0336
R4H: -0.476
A6D: -0.0195
F8Y: -0.12

Block 3 — method: RNA Bind-n-Seq; form: RNA; medium: in vitro; tested at: 365 nM; reference: no-protein control; direction: higher = stronger binding; measurement: RBNS enrichment (R)
Target: RNA binding protein fox-1 homolog 2, RRM domain, GST-SBP tag (RBFOX2, Homo sapiens, UniProt O43251-10, residues 100-194)
Notes: natural RNA segment, single round, ends assumed
All sequences stand within: GGGAGUUCUACAGUCCGACGAUC … UGGAAUUCUCGGGUGCCAA
Target sequence (chain): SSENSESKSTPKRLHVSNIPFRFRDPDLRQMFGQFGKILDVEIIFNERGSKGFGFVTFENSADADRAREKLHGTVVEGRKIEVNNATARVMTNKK
UGCUGUGUAUUUUGAUUUCCUGUGUAUGCAAAUGUGUGUAUUUACCAUUGUGUAGGGGGCUGUGUCUGAUCUUGGUGUUCAAAACAGAACUGUAUUUUUGCCUUUAAAAU: 1.34
AAACAAACGAAUGAAUGAACAGACACACACAAUGUUCCAAGUUCCCCUAAAAUAUGACCCACUUGUUCUGGGUCUACGCAGAAAAGAGACGCAAAGUGUCCAAAAGGAAC: 0.429
AUGUUUCAGAUGUUUAUUUGUAUAAUUACUUGAUUCACACAGUGAGAAAAAAUGAAUGUAUUCCUGUUUUUGAAGAGAAGAAUAAUUUUUUUUUUCUCUAGGGAGAGGUA: 0.545
UCAUCCUUGCUGUGGGUCAUCCUUGCUGUGGAGAUCCAUUCCCCACCUUUCCUGUGGCCCAACCUUUUAUUUAAAUGUGCUACCCUCUGCCUCAAGGCUUGGUUCCUGGA: 0.544
CCCCAUCCCUGGGGCAACAUUCCCUGGAGCUGUGCCAACAGGAGGACUGAAGCAGCCUGGUUUUAGAGUGUAGCUGUAAGGGCAGUGCCCGUGUGUACAGUCUGUGGAGU: 0.564
CAUUGUUUUGUGCUUUUGAAGAAGUUUUAUUUAUAUGCAUUAUUUUUAUUGUUUUUACUUUGACUGGAAUGUUUAUUGUGAACUGUAUUUAUUUUUAUACUUUGAUUUUC: 1.39
UUGGGAAUCCUGGAUAGUGUUCUAUCCAUGGAAAGUGGUGGAAUAGGAAUUAAGGGUGUUCCCCCCCCCCCCAACCUCUUCCUCAGACCCAGCCACUUUCUAUGACUUAU: 0.399
UUUAUGCUAGUGAACAAAGUAGCAAUAAAUGUUCAUUUUUGGAUGGCAGUACACAUUGUUAACAAUCGUGUAAUUAUAAUAAAUAUGUCUACCUACUCCUUGAACCAUGA: 0.331

Further values, each from its own experiment
PhoQ, residues 284 288 289 292 302 303 WVSSAF  fold induction (PhoP, residues 12 14 15 18 19 AQCLL (Escherichia coli, UniProt P23836); Sort-seq, item: YFP reporter; E. coli; PhoQ-PhoP variant library, with: 10 µM Mg2+; reference: high Mg2+ state, higher = stronger signaling): 9.11

Excerpt of the above (block 1):
Y231V: 2030 nM
D161V: 1330 nM
T104V: 1610 nM
L254G: 1550 nM
Y45G: 2440 nM
